Experimental data pooled from the literature.
Protocols differ between the studies behind these lines. ± marks the error that the study gave.

| SMILES | target | assay | system | setting | IC50 |
| --- | --- | --- | --- | --- | --- |
| Cc1ccc(S(=O)(=O)N[C@@H](CCCCN)C(=O)CCl)cc1 | E2 Blattella germanica protease | covalent inhibitor | – | 1 h preincubation, with: QAR-AMC | 0.5 ± 0.04 µM |
| CC[C@H](CC[C@@H](C)[C@H]1CC[C@H]2[C@@H]3CC=C4C[C@@H](O[C@@H]5O[C@H](CO)[C@@H](O)[C@H](O)[C@H]5O)CC[C@]4(C)[C@H]3CC[C@]12C)C(C)C | arginine-methylglyoxal glycation | AGE formation, inhibitor | – | – | > 1300 µM |
| C[C@H](/N=C1\NC(=O)S\C1=C/c1ccc2c(c1)OCO2)C(=O)O | class I PI3K | enzyme activity, inhibitor | – | – | 10 to 20 µM |
| C[C@H]1CC[C@H](n2c3cnccc3c3cnc(Nc4ccc5c(n4)CCN(C(=O)CO)C5)nc32)CC1 | FLT3-ITD | inhibitor | MOLM-13, mouse, subcutaneous MOLM-13 xenograft, plasma, free concentration | – | 0.028 µM |
| Cc1c(-c2ccc(O)cc2)nn(-c2ccc(O)cc2)c1-c1ccc(OCCN2CCCCC2)cc1 | TLR2 (mouse) | TNF-alpha production, inhibitor | RAW264.7 | 6 h, with: Pam3Cys 100 ng/mL | 10.2 ± 0.2 µM |
| C=CCc1ccc(OC)c(OC)c1 | anti-eugenol monoclonal antibody mouse | antibody binding, indirect competitive ELISA | – | antibody 0.25 µg/mL, with: coating antigen Eug-222-OVA 0.5 µg/mL | 0.8 ng/mL |
| CC(C)C[C@H](NC(=O)[C@@H](O)[C@H](N)Cc1ccccc1)C(=O)O | aminopeptidase, human cell surface | enzyme activity, inhibitor | U-937, cell suspension | with: Leu-AMC substrate | 6.27 µM |
| Oc1cc2c(cc1O)[C@@H]1c3ccc(O)c(O)c3OC[C@]1(O)C2 | class IIb HDAC | enzyme activity | bovine heart lysate | – | 89 µM |
| CCCCNc1ccc(C(=O)OCCN(C)C)cc1 | anti-eugenol monoclonal antibody mouse | antibody binding, indirect competitive ELISA | – | antibody 0.25 µg/mL, with: coating antigen Eug-222-OVA 0.5 µg/mL | > 10000 ng/mL |
| COc1ccc2c(c1OC)C(=O)O[C@@H]2[C@H]1c2c(c(C)c3c(c2OC)OCO3)CCN1C | tubulin, bovine brain | inhibitor | – | – | > 400 µM |
| O=C(O)/C=C/c1ccc(O)c(O)c1 | class IIb HDAC | enzyme activity, inhibitor | bovine cardiac tissue | – | > 80 µM |
| O=C1Nc2ccc(Cl)cc2[C@@](C#CC2CC2)(C(F)(F)F)O1 | GABAA receptor α5β2γ2 | GABA-evoked current, inhibitor, whole-cell patch clamp | – | with: GABA EC30 | 9.7 ± 0.8 µM |
| O=c1c(O)c(-c2ccc(O)cc2)oc2cc(O)cc(O)c12 | class IIa HDAC | enzyme activity | bovine heart lysate | – | 48 µM |
| CC[C@H](Nc1ncnc2[nH]cnc12)c1nc2cccc(F)c2c(=O)n1-c1ccccc1 | Akt Ser473 phosphorylation | inhibitor, measured: phospho-Akt Ser473 | Ri-1 human B cell lymphoma cells | with: anti-IgM | 0.041 µM |
| O=c1c(O)c(-c2ccc(O)c(O)c2)oc2cc(O)cc(O)c12 | class IIa HDAC | enzyme activity | bovine heart lysate | – | 36 µM |
| NC[C@@H]1O[C@H](O[C@H]2[C@@H](O)[C@H](O[C@@H]3[C@@H](O)[C@H](N)C[C@H](N)[C@H]3O[C@H]3O[C@H](CO)[C@@H](O)[C@H](O)[C@H]3N)O[C@@H]2CO)[C@H](N)[C@@H](O)[C@@H]1O | HIV-1 nucleocapsid protein-SL4 RNA complex | complex dissociation, ESI-FTMS | – | preformed complex ~3.5 µM | 17.8 ± 1.2 µM |
| O=c1cc(-c2ccc(O)c(O)c2)oc2cc(O)cc(O)c12 | class IIa HDAC | enzyme activity | bovine heart lysate | – | 18 µM |
| CC(=O)OCCOC(C)=O | lysine-containing peptide | peptide depletion, mass spectrometry | – | 24 h, pH 10.2, room temperature, with: lysine peptide 0.5 mM | 17100 µM |

For quick reference, copied from above:
| SMILES | target | assay | system | setting | IC50 |
| --- | --- | --- | --- | --- | --- |
| O=C(O)/C=C/c1ccc(O)c(O)c1 | class IIb HDAC | enzyme activity, inhibitor | bovine cardiac tissue | – | > 80 µM |
| O=C1Nc2ccc(Cl)cc2[C@@](C#CC2CC2)(C(F)(F)F)O1 | GABAA receptor α5β2γ2 | GABA-evoked current, inhibitor, whole-cell patch clamp | – | with: GABA EC30 | 9.7 ± 0.8 µM |
